Published values pooled from the literature.
Each numbered part is a random draw from the data of one study; scales do not carry over between parts. Substitutions count along the parent as printed.

Sample 1
Target: CCNB3, cyclin fold, Cln2 fusion (human)
Method: yeast growth competition, sequencing
Sample: yeast
Notes: strong parent motif
Baseline: not given
Reading: higher = stronger binding
Quantity: normalised enrichment score
Parent: viral docking peptide; KGVKRKLFAEDSS; partner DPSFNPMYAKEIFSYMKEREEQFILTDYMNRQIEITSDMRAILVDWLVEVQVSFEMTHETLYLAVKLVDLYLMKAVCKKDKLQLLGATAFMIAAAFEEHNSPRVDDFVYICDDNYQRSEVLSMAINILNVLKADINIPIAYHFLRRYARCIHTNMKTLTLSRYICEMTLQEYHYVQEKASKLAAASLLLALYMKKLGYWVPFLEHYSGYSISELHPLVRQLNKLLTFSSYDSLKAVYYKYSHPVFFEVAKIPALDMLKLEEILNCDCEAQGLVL
F8P: -0.163
K6E: 0.26
K4H: 0.418
V3L: 1.22
A9R: 1.97
K4D: -0.0992
K4C: 2.8
K4G: 0.494

Sample 2
Target: tungstate, free oxyanion
Method: microfluidic competitive inhibition
Sample: in vitro, cell-free expressed
Tested at: not given
Notes: derived from inhibition constants, unchanged parent 2230 nM
Reading: lower = stronger binding
Quantity: oxyanion analog dissociation constant
Parent: PafA, mature enzyme, eGFP fusion (Elizabethkingia meningoseptica, UniProt Q9KJX5); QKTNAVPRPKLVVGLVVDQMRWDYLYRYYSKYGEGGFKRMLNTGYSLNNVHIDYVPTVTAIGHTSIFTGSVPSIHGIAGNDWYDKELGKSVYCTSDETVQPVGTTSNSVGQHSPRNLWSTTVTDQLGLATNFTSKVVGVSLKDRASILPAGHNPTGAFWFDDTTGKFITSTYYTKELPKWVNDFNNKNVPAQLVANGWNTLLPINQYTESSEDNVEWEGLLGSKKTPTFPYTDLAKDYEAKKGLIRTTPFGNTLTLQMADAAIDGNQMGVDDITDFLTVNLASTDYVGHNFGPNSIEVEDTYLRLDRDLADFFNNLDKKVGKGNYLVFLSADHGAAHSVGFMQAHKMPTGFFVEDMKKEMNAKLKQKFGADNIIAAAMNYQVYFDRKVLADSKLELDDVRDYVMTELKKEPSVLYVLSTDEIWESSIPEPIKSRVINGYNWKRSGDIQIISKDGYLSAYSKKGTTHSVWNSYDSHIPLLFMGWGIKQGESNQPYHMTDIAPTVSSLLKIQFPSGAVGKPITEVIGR
P72G: 1.23 µM
D84G: 2.15 µM
I485G: 1.4 µM
Y402V: 2.18 µM
T464V: 3.42 µM
K242V: 2.11 µM
L478G: 1.3 µM
L389G: 1.44 µM

Other studies, line by line
Cc1cc(Cl)cc(C(=O)N[C@H](C)CO)c1NC(=O)c1cc(Br)nn1-c1ncccc1Cl — remaining compound (human, microsomes or S9; 2 µM, 0.5 h): 78.7%
O=C1CCC(N2Cc3c(ccc4c3OCC43CCN(Cc4ccccc4)CC3)C2=O)C(=O)N1 (stereo not shown) — bioavailability (male CD-1 mouse, plasma; oral, 3 mg/kg): 108%
CCC(=O)N[C@H]1CC[C@@H](C(=O)N(C)c2ccc(-c3nc4ccccc4o3)cc2)C1 — remaining binding (CRK2 (Plasmodium falciparum, UniProt P61075); cell-free assay, competition with immobilised ligand; 1 µM): 80%
